Results collected from several papers.
A part holds a random share of what one study measured.

Series 1
Target: RNA binding protein fox-1 homolog 2, RRM domain, GST-SBP tag (RBFOX2, Homo sapiens, UniProt O43251-10, residues 100-194)
Technique: RNA Bind-n-Seq
Molecule type: RNA
Sample: in vitro
Tested at: 365 nM
Notes: natural RNA segment, single round, ends assumed
Relative to: no-protein control
Reading: higher = stronger binding
Constant ends, left off below: GGGAGUUCUACAGUCCGACGAUC … UGGAAUUCUCGGGUGCCAA
Target sequence (chain): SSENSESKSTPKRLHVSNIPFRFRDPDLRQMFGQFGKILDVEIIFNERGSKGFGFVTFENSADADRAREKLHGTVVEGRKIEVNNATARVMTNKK
| Oligonucleotide | RBNS enrichment (R) |
| --- | --- |
| AAUUUCCUUUGACUUUUGUGGCGCAUAGGAGUCCGUGUUUAUCUUCUCGAUUUUGUUCUGAGGGUUUAUGAACUCAUUGAGAACCAGGAUUCCUUGAGACUCUUUAGCAU | 0.511 |
| AAGUCACAAAUUUGGUGUCUUUUCACCUUUUGACUGUUGACUUAAUAGCUCCUCUCACUCUGCCUGGAGAUACUUCCUGCCUCAGAUGAGGAGCCAGAAGAAACAGAGCC | 0.238 |
| UCCACAGCCUUUUUAUAAACUGAGCCUCUUCUUAAUGAUUGUUCUGGGCUUGGCAGUAGGAUAGACUUGAUGCCUGCGUUUUGGACCUUAGACCUGCCCGCCUUCGUUCC | 1.88 |
| UGUGGGAGGGUAAGACAAUAUGAACAAACUAUGAUCACAGUGACUUUACAGGAGGUUGUGGAUGCUCCAGGGCAGCCUCCACCUUGCUCUUCUUUCUGAGAGUUGGCUCA | 0.626 |
| GGCCCAUUGCUGACGAUUAGUUCUAAAAUCUUAUUCCUCCUCUUCUCCCCUCACUUUUCCCUACUUCCUCUGCAAAAAGAUUUAACAAAUACAUUCAUAAGGAAAUGUGU | 0.578 |
| UUCAUGUGGAACCCUCACCUGGGCUACAUCCUCACCUGCCCAUCCAACCUGGGCACCGGGCUGCGGGCAGGUGUGCAUAUCAAGCUGCCCAACCUGGGCAAGCAUGAGAA | 0.302 |
| CAGAGCUCUUUAAAGCUCUGCAGAAGAUUUACAUGUGUUUAUAGAGCUAAGAGAAAUCAGGGCAUGGAAAUUGAGUGUGUAAUAAAAAUUAAACUCUUCAUGUUAUAUAA | 1.15 |
| CUAGAAACCAAUGAGCUUUAGAUUCAUUCCUGGGUUUUUGCUUAAAAAAAAGUGAACUAAUAUAGCAUCAGGUAAGCAUUGUCACAGAGCCAAGCCUGGUAGGAUUUGUC | 0.512 |
| AGUUUUGAUAGACUCUGAGGAUCAUAUGAACAGGACAUUUUUCAUUUGUGAAUUUAAUGCUAUCUUGUCAAGGUACUUGCUUGUGUCUGAACUCUAGUGCACUUAUCAUU | 4.12 |
| AUUUAAGAAAAAUUGCUGUUUCUACUCUCUGUAUCUGAUUUUAAAAGGAAAAAAAAAUUCACACCUGGCUUUCAGGUAACUGACUUUGGAUUCUUACAAGCAAAGGUCAU | 0.441 |
| AAGACACAAGAGUGACAUCUGAUCCUAGCACGGGGCCUGUUGAUCCAUUGCCUGGACUGAGCUGUGAAACUGGACGCGGUUUUGGUUUUUUGUUUUGUGUUUCUUUUUUC | 2.67 |
| AAGGGCCUCCUUGUUCUUUCCCAGAAACAUUCAGUGGCUUGGACCAACCCCUGAGUAUAUACAUUGGCUCUUUCCCCCCUGUACCUUAUCUCUCCCCUCCAUCCCCUCCC | 0.659 |

Series 2
Target: Histone acetyltransferase KAT6A, both winged helices, GST fusion (KAT6A, Homo sapiens, UniProt Q92794, residues 1-181)
Technique: protein binding microarray
Molecule type: double-stranded DNA, one strand shown
Sample: in vitro
Tested at: not given
Notes: 8-mer, flanks averaged, mean of 2 arrays, mostly near background
Relative to: not given
Reading: higher = stronger binding
Construct (chain): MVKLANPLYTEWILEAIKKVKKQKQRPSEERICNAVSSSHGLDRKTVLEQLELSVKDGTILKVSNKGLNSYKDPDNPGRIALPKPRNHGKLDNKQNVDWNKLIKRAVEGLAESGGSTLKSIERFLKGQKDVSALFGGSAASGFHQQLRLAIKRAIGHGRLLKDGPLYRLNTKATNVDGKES
| Oligonucleotide | E-score |
| --- | --- |
| CTGCCCAC | -0.266 |
| CCTTAGAC | -0.0113 |
| GGCGGTGA | 0.18 |
| AAGCTACG | -0.0185 |
| AGGTCCCC | -0.0357 |
| CGAGCCTA | -0.138 |
| AACGTGTC | 0.0691 |
| ACCGTGTC | 0.238 |
| TTAAAAAA | -0.122 |
| AGGAAAAG | -0.115 |
| TACGACGA | -0.262 |
| CGACCTCC | -0.0876 |
| AAAGCCTT | -0.152 |
| AGCATCAA | -0.167 |
| CATCATTC | 0.0213 |
| AATACACT | -0.135 |
| AATCAAGG | -0.0585 |
| TACTTTAA | -0.0981 |

Series 3
Target: Hepatocyte nuclear factor 3-alpha (Foxa1, Mus musculus, UniProt P35582, residues 1-468, full length assumed)
Sequence of UniProt P35582 (whole entry, looked up): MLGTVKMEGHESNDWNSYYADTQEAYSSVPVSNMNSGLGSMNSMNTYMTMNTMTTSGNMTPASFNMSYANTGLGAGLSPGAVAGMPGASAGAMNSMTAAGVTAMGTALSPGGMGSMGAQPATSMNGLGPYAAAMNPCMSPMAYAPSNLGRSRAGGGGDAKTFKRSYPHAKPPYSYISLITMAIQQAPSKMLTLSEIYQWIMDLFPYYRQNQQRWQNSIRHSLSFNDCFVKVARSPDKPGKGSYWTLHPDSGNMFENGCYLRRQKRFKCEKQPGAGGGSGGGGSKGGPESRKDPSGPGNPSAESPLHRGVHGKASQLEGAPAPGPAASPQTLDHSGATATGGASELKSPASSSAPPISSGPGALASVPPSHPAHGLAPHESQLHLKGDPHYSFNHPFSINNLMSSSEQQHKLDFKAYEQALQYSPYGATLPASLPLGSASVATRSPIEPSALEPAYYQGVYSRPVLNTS
Technique: EMSA with sequencing
Molecule type: double-stranded DNA, one strand shown
Sample: in vitro
Tested at: 10 and 20 nM
Notes: whole designed probe, mean of two concentrations, ends assumed
Relative to: negative control set to 0
Reading: higher = stronger binding
Constant ends, left off below: GTGAGCGGTGCCCATTGATGGGGAAC … TTTCACTGGGATCGTGGGGAC
| Oligonucleotide | normalised bound fraction |
| --- | --- |
| ATTGATATATAAAACAACATTCTTATAGTGTGTTTTATTTATAATTTAGTATTTACTAATACAAGACAAGGACTTAGTAGTTCTTAAGTCCTTGTTTACACTGTTCATATACATGGTAGTTTTATTTATTTAGCCCTATCTACTCTACTCTTTCCCCACCCACTTTCCCCTCCATCTTCAAATCCTAATTTCT | 0.513 ratio |
| GACAGTACATGTTTTAGGATTTTTGGACCACACAGTCTCTGTCACAATGACTCAGCTTTGCCATTGTAGCGTGCAAACAGCCACAAACCATATGCAAACAAATGTATGCCAAGAGGGTGTGGTTAAAACTTTATTTACAAAAGCAGGAGGACAGTGGAGTTGGCTTGCAGACAGTCATTTGCAGAGCCCTGAT | 0.426 ratio |
| GCATACCAGTTGATGCCCCAGCCCTCCCTCCCAGGTAGATTTTGAAATCCTCTAGATGTGGAAAAATCTAAACATATTGTGCAAATTACAGAGTAATCTAGGGGAGTTGAGGATTTCATAAGCATGTTCTCCACTTTTTTTTCCCTTTTCCTCTTCCATCTTGGGAGTAGAAGAAAACAGATTCGGTTTACCT | -0.0411 ratio |
| ATTTTTTTAATACTGAGTTTTATCTGCAACAGTAAAACATATATGAAGGAATTCTGCCTTCACAACAAATGGCTCCCAGATAAAGAGAGCCATGTTTACTTATATTTATAGGTCAAATATAACATCTTGCAATCCTGATTGGATTACATTTGGGTCAGTTTTAATAAAAGCAAGAAATTCCTATCTTCGGTAA | 0.353 ratio |
| AGGGATGTAGACAGAGAGGCAGTTTGAATAATTTTGGAGTACATTTTACTTTAGTTTGAATGGGAGATGGTAAGAGGCAACTGGTTGGCTAAGTAATCTGCAAAAAATAGCTTTAGGTTCAGAGTCTTTCCTTGATTTCCTCTCAATAGCTCTGAGCATAGTCCTACCGCAATTTGTAGTATAAAAACATAAC | -0.0433 ratio |
| AGGTGAATTGGCTGCTTCCATCCTGGCTTGGAACTTCAGACATAGAAGCCTTGGGACTTTCTCAGGACTTTCTCCAGACTGACTCATGCTGCTTGTTTGCTGAATCTCTGTGGATCACGTGACCTTAGCCAGGGATGTTGGTGAAACTGTGTGTTGGTCTAGGTACCTAGCCCATGCTAGGTGCTCATCGAAT | 0.0559 ratio |
| TTTAAACTTTTGTAAAAATGTTCAAAGAGAATCTGTTGTTAGAAGTTTAACATTCTGATTTAACTGTTTTGAATACGAAAAATACAAACTCAAAGTAAACATCTAAAATATAAGGCAAATCTATCCATATAGAAAAGGAATAAGAAGGTACTGACCAATGAAGTTGAAACAACACTGTCATATTAATCTCAAA | 0.347 ratio |
| GCCTTGTTCAATTCTAGAATTTAATCTAGGATGACCCATTGTTTCTATTTGTCACATCTGTTTAGACTTCTCTGGTCTATGACAATTTCTCAGTGTTTGCTTATTTTTCATGAGCTCATAGTTTTGAGGAGTACTCATCAGGTATTTTGTGAAATGTCCCTCAATTTGTATTTGTCTTATGTTTTCTCATAAT | 0.308 ratio |

Series 4
Target: Prothrombin, mature alpha-thrombin (F2, Homo sapiens, UniProt P00734)
Technique: aptamer microarray, sandwich
Molecule type: DNA with 2'F-ANA
Sample: in vitro
Tested at: 200 nM
Notes: whole 15-mer aptamer, many near background
Added: Cy3 exosite-II aptamer, 400 nM
Reading: higher = stronger binding
Oligonucleotide: GGTTGGTGTGGTTGG
| Modification | mean fluorescence intensity |
| --- | --- |
| 2'F-ANA at 1 2 3 7 9 10 13 | 65.2 a.u. |
| 2'F-ANA at 2 3 4 7 8 13 | 570 a.u. |
| 2'F-ANA at 4 5 6 7 9 10 12 14 | 43.7 a.u. |
| 2'F-ANA at 3 5 6 9 10 11 12 15 | 71.8 a.u. |
| 2'F-ANA at 2 4 6 8 13 | 203 a.u. |
| 2'F-ANA at 1 2 3 8 9 10 12 | 120 a.u. |
| 2'F-ANA at 2 3 4 8 12 14 15 | 356 a.u. |
| 2'F-ANA at 1 3 8 10 11 12 15 | 129 a.u. |
| 2'F-ANA at 1 3 5 6 7 8 11 14 | 45.9 a.u. |
| 2'F-ANA at 1 4 5 7 8 9 10 12 13 15 | 49.1 a.u. |
| 2'F-ANA at 3 4 8 9 10 11 13 14 | 287 a.u. |
| 2'F-ANA at 1 2 3 5 8 9 10 13 14 15 | 45.1 a.u. |
| 2'F-ANA at 1 2 3 6 8 9 10 12 14 15 | 55.2 a.u. |
| 2'F-ANA at 1 2 3 4 8 9 11 13 14 | 57.3 a.u. |
| 2'F-ANA at 2 4 5 6 9 10 12 14 15 | 44.2 a.u. |
| 2'F-ANA at 1 4 8 11 12 13 | 219 a.u. |
| 2'F-ANA at 3 4 6 8 10 11 12 13 | 210 a.u. |
| 2'F-ANA at 2 5 7 8 9 13 15 | 74.8 a.u. |
| 2'F-ANA at 3 4 5 8 9 12 14 | 58.8 a.u. |
| 2'F-ANA at 2 6 9 10 11 15 | 94.9 a.u. |
| 2'F-ANA at 1 3 5 6 7 8 9 13 | 52.7 a.u. |
| 2'F-ANA at 6 7 11 12 15 | 530 a.u. |
| 2'F-ANA at 2 6 7 8 9 11 12 13 14 | 138 a.u. |
| 2'F-ANA at 4 5 9 10 11 12 14 | 66.2 a.u. |
| 2'F-ANA at 1 4 5 6 7 8 11 15 | 52.4 a.u. |

Excerpt of the above (series 2):
| Oligonucleotide | E-score |
| --- | --- |
| AGGTCCCC | -0.0357 |
| CTGCCCAC | -0.266 |
| TACGACGA | -0.262 |
| AGCATCAA | -0.167 |
| AAAGCCTT | -0.152 |
| AAGCTACG | -0.0185 |
| CATCATTC | 0.0213 |
| AATCAAGG | -0.0585 |
